Published values gathered from unrelated publications.
Compare with care: the assays were run in different laboratories. “And” joins repeats or separate records; there may be more than shown.
Target: DNA-dependent protein kinase catalytic subunit (PRKDC, Homo sapiens, UniProt P78527)
Chain of UniProt P78527 (whole entry, looked up): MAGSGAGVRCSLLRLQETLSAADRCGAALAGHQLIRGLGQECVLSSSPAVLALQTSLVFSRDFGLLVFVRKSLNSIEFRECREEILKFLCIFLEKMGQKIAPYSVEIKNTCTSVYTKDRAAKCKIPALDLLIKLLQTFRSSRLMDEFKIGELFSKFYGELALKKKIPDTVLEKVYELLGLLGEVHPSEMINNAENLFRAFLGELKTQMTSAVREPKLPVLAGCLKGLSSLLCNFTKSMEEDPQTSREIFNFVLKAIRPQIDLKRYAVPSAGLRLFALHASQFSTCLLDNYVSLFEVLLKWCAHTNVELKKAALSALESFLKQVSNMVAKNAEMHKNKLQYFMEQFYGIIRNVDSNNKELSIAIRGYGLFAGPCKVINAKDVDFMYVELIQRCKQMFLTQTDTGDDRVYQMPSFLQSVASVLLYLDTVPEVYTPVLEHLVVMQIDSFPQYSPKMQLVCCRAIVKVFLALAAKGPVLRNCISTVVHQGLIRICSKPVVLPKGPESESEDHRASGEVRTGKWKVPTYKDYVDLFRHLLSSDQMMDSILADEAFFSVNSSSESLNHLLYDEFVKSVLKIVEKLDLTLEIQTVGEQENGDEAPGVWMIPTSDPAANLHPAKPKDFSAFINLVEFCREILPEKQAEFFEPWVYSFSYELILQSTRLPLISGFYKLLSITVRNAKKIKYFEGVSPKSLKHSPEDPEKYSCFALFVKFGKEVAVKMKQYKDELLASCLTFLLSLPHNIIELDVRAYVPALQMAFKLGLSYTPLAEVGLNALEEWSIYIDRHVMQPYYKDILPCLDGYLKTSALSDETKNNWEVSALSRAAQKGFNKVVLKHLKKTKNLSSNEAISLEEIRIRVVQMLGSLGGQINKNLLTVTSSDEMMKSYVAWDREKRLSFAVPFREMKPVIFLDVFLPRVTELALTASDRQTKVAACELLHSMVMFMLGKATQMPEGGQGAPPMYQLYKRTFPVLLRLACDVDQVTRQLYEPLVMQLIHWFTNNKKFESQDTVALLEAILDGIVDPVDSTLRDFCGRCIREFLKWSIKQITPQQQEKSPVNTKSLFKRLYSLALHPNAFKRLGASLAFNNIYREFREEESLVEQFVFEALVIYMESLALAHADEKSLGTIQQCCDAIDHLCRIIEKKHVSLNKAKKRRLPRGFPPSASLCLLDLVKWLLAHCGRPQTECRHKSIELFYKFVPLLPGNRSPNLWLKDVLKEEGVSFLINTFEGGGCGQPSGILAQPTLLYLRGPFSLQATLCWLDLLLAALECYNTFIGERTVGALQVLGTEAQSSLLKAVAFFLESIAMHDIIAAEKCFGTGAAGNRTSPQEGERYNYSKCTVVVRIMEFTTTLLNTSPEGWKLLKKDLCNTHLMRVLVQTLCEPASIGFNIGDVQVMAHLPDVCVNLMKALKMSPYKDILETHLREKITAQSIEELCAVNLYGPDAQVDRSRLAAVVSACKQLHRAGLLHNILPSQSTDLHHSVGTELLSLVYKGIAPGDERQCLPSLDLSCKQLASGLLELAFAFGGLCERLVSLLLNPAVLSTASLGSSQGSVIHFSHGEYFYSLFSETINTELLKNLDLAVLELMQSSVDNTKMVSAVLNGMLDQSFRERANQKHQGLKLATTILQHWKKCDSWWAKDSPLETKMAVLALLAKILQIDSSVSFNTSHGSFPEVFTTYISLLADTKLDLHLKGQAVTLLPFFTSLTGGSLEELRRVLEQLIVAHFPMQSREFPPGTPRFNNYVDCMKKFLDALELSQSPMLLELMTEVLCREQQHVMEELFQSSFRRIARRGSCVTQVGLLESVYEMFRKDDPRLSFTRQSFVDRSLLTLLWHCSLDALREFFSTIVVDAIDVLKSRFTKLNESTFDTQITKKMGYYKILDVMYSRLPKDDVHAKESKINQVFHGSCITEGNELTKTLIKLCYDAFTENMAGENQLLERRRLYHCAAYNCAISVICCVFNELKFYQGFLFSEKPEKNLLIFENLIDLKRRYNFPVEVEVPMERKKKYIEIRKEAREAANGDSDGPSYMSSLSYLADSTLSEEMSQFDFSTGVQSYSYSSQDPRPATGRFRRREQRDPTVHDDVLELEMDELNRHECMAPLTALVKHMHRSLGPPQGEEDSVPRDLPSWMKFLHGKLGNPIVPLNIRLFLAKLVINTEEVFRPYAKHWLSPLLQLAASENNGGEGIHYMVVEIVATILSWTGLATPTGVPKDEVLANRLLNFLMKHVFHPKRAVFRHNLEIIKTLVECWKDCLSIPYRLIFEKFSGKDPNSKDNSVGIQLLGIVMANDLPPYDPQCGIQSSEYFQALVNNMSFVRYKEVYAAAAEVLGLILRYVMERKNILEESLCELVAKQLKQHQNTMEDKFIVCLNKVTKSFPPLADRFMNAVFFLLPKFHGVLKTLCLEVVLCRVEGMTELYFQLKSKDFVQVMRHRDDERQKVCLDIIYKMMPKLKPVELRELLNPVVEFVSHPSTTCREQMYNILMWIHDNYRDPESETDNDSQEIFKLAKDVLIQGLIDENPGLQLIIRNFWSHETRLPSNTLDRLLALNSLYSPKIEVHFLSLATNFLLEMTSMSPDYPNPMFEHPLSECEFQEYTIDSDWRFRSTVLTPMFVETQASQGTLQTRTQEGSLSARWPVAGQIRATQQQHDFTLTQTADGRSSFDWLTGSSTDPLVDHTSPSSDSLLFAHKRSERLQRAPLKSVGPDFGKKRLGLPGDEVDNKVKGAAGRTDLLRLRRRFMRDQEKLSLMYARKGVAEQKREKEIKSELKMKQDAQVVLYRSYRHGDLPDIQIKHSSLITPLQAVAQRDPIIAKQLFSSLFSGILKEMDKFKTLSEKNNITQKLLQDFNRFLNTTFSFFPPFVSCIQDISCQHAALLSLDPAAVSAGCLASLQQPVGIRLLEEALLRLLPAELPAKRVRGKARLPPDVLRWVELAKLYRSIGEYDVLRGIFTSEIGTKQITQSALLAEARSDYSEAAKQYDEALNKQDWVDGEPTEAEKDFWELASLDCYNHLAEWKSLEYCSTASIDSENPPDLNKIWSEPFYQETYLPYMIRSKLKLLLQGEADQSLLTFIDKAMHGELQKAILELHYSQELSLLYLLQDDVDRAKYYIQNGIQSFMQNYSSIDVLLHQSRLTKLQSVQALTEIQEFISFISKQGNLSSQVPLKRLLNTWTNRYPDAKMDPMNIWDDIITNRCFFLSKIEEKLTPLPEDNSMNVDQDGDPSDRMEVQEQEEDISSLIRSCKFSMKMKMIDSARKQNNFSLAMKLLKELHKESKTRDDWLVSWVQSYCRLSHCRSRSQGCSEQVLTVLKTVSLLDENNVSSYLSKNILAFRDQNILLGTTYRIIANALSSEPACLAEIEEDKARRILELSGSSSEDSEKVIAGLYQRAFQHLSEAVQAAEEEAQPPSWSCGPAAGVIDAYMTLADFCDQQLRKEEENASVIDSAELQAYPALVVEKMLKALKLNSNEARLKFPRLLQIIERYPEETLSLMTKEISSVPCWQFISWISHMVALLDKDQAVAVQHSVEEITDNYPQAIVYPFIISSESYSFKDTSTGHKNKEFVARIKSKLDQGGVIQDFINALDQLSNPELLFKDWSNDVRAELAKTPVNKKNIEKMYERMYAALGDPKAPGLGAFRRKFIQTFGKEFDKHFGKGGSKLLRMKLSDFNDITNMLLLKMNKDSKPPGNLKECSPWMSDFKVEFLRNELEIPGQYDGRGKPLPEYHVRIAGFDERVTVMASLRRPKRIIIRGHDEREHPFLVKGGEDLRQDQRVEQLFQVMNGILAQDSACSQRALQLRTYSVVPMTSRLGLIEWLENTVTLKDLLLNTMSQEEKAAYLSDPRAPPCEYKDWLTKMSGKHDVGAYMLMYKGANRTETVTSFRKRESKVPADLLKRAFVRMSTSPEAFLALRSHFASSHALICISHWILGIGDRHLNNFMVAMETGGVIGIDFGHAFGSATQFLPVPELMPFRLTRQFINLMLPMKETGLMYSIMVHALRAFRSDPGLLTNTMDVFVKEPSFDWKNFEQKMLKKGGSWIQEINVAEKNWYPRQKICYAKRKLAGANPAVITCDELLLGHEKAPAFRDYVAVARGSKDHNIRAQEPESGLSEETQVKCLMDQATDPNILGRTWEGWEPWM

CC(=O)N1c2ccc(-c3ccc(CNC(=O)c4cn5cc(-c6cnc(N)nc6)nc(N6CCOCC6)c5n4)cc3)cc2CC[C@@H]1C has a remaining activity of 37% (enzyme activity, inhibitor, radiometric; 1 µM).
For CN1CCN(Cc2ccc(-c3ccc(CO[C@H]4CCC[C@@H]4NC(=O)c4cc(-c5cnn(C)c5)cnc4N)cc3)cc2)CC1, the inhibition was 18% (enzyme activity, inhibitor; 0.1 µM).
For CN1CC[C@@H](COc2cnc(C#N)cc2-c2ccn3nc(NC(=O)C4CC4)cc3c2)C1, the inhibition was -3% (enzyme activity, inhibitor; 1 µM).
N[C@H]1CC[C@H](Nc2nccc(-c3cccnc3Oc3ccc(NC(=O)NC4CC4)c4ccccc34)n2)CC1 — result for “log2 LFQ intensity”: 28.5 and 28.4 (kinobead competition pulldown; HEK293/HCT116 lysate mixture; 10 µM, 1 h, 4 °C; lower = stronger competition).
The inhibition of CS(=O)(=O)Nc1cccc(-c2csc3cnc(Nc4ccc(N5CCN(CCCCCOc6cccc7c6C(=O)N(C6CCC(=O)NC6=O)C7=O)CC5)cc4)nc23)c1 (stereo not drawn) is reported as -8.55% (probe labelling, inhibitor, KiNativ chemoproteomics; MOLT-4; 1 µM).
With C[C@H]1CN(C(=O)c2cn(-c3ccnc(N)n3)c3cc(C#CC4(O)CCCCC4)ccc23)CCN1 the inhibition was -1% (enzyme activity, inhibitor, FRET; 1 µM).
The inhibition of Cc1nc2c(F)cc(-c3nc(Nc4ccc(CNC(=O)CCCCCCC(=O)NO)cc4)ncc3F)cc2n1C(C)C is reported as 6% (enzyme activity, inhibitor; 1 µM).
O=C(Cc1ccc(OCc2ccccc2)cc1)NC1(C(=O)O)CCN(C(=O)c2ccc(-c3cccc(Cl)c3)cc2)CC1 — result for “activity vs control”: 88% (enzyme activity, inhibitor; 10 µM).
CCn1cc(C(=O)O)c(=O)c2c(N)c(F)c(NC3CCCCC3)cc21 gave an inhibition of 11.2% (kinase activity; 0.1 µM, added: ATP at Km).

Repeated from above:
The inhibition of Cc1nc2c(F)cc(-c3nc(Nc4ccc(CNC(=O)CCCCCCC(=O)NO)cc4)ncc3F)cc2n1C(C)C is reported as 6% (enzyme activity, inhibitor; 1 µM).
